Published values from different studies.
“And” joins repeats or separate records; there may be more than shown. ± marks the error that the study gave. In brackets after ≈: the same amount, converted by molar mass.

SMILES = COc1cc2c(NC3CCN(C(C)C)CC3)cc(N3CCOCC3)nc2cc1OCCCN1CCCC1; test = TMT quantitative proteomics, item: ALDOA; system = APP AD model mice, hippocampus; conditions = dose not given; endpoint = normalised protein abundance; value = -0.0149 and 0.243 and 0.0316 and 0.0501 and 0.273 and 0.257 and 0.0188
SMILES = CN1CCCNC(=O)c2cccc(c2)C(=O)NCCCN(C)CCCNc2cccc3c2C(=O)c2cccc(c2C3=O)NCCC1; target or system = SAS; test = RNA-Seq, item: ZSWIM4 mRNA; conditions = 1 µM, 6 h; scale = baseline: untreated cells; endpoint = log2 fold change; value = 1.38
SMILES = CNS(=O)(=O)Nc1nccc(Cc2c(C)c3ccc(Oc4ncccc4F)cc3oc2=O)c1F; target or system = HS-SY-II; test = cell viability, CellTiter-Glo; conditions = 7 days; endpoint = IC50; value = 0.574 µM
SMILES = COC1OC(C)C(OS(=O)(=O)O)C(OC2OC(C)C(OS(=O)(=O)O)C(OC3OC(C)C(OS(=O)(=O)O)C(OC4OC(C)C(OS(=O)(=O)O)C(OS(=O)(=O)O)C4OS(=O)(=O)O)C3OS(=O)(=O)O)C2OS(=O)(=O)O)C1OS(=O)(=O)O (stereo not shown); system = human plasma; conditions = 128 µg/mL; scale = baseline: control; endpoint = thrombin time prolongation; value = 0.9 fold
SMILES = Cc1c(CN(C)C(=O)/C=C/c2cnc3c(c2)CC(N)C(=O)N3)oc2ccccc12 (stereo not shown); target or system = Enterobacter cloacae; test = broth microdilution; system = ATCC 29893; endpoint = MIC; value = 8 mg/L (≈ 20.5 µM)
SMILES = Nc1ncc(-c2cc(-c3cnn(CC(F)(F)F)c3)ncc2F)nc1C(=O)NC1CNCC(F)C1 (stereo not shown); target or system = HIPK3; test = KINOMEscan; conditions = 1 µM; scale = baseline: DMSO control; endpoint = remaining binding; value = 100%
SMILES = CC(C)c1ccc(N(C)c2ccc3c(c2)OCC[C@H]3CNc2cnccc2C(=O)O)cc1; target or system = NCI-H929; test = cell viability, CellTiter-Glo; conditions = 7 days; endpoint = IC50; value = 0.0345 µM
SMILES = COC1OC(C)C(OC2OC(C)C(O)C(OC3OC(C)C(OC4OC(C)C(O)C(OC5OC(C)C(O)C(OS(=O)(=O)O)C5OS(=O)(=O)O)C4OS(=O)(=O)O)C(OS(=O)(=O)O)C3OS(=O)(=O)O)C2OS(=O)(=O)O)C(OS(=O)(=O)O)C1OS(=O)(=O)O (stereo not shown); system = human plasma; conditions = 128 µg/mL; scale = baseline: control; endpoint = thrombin time prolongation; value = 0.9 fold
SMILES = C=CC(=O)Nc1cccc(Cn2ncc3cnc(Nc4cnn(CCOC)c4)nc32)c1; target or system = MAP4K3 human; test = binding, KINOMEscan; conditions = 100 nM; scale = lower = stronger binding; endpoint = percent of control; value = 100%
SMILES = COC1OC(C)C(OC2OC(C)C(OS(=O)(=O)O)C(OC3OC(C)C(OC4OC(C)C(OS(=O)(=O)O)C(OC5OC(C)C(OC6OC(C)C(OS(=O)(=O)O)C(OS(=O)(=O)O)C6O)C(OS(=O)(=O)O)C5O)C4O)C(OS(=O)(=O)O)C3O)C2O)C(OS(=O)(=O)O)C1O (stereo not shown); system = human plasma; conditions = 128 µg/mL; endpoint = thrombin time; value = 10.2 ± 0.1 s
SMILES = C=CC(=O)N1[C@@H](c2ccc3c(c2)OCO3)c2[nH]c3ccccc3c2C[C@H]1C(=O)N1CCN(C)CC1; target or system = CCNE1 WT-3xFLAG:CDK2 complex; test = co-IP TMT proteomics, item: ATAD3A; system = HEK-293T; conditions = 20 µM, 6 h; scale = baseline: DMSO; endpoint = log2 fold change; value = -0.03
SMILES = Cc1ccc(N(O)/N=N/c2ccc(S(=O)(=O)Nc3nccs3)cc2)cc1; test = DPPH scavenging, absorbance; conditions = 60 µg/mL; endpoint = inhibition; value = 26.5%
SMILES = COc1ccccc1-c1ccncc1C(=O)Nc1nnc(OCc2ccc(Cl)cc2)s1; target or system = MDA-MB-436 BRCA1-mutant; conditions = 1.5 µM, mean of 3 replicates; scale = baseline: untreated; endpoint = colony survival; value = 50.3%
SMILES = COC1OC(C)C(OS(=O)(=O)O)C(OC2OC(C)C(OS(=O)(=O)O)C(OC3OC(C)C(OS(=O)(=O)O)C(OC4OC(C)C(OS(=O)(=O)O)C(OC5OC(C)C(OS(=O)(=O)O)C(OC6OC(C)C(OS(=O)(=O)O)C(OC7OC(C)C(OS(=O)(=O)O)C(OS(=O)(=O)O)C7O)C6O)C5O)C4O)C3O)C2O)C1O (stereo not shown); system = human plasma; conditions = 128 µg/mL; endpoint = thrombin time; value = 9.6 ± 0.6 s
SMILES = Cc1ncsc1-c1ccc(C(C)NC(=O)C2CC(O)CN2C(=O)C(NC(=O)CCCCCCCCCCN2CCCC(Nc3ncc(Cl)c(Nc4ccccc4S(=O)(=O)C(C)C)n3)C2)C(C)(C)C)cc1 (stereo not shown); target or system = 22Rv1; test = RNA-seq, item: MOCS3 mRNA; conditions = concentration not given; scale = baseline: DMSO; endpoint = log2 fold change; value = -2.15
SMILES = COc1cc(O)ccc1CCC(c1ccc(O)cc1)c1cc2c(c(C)c1O)OC(c1ccc(O)cc1)CC2 (mixture of isomers); test = item: 15-HEPE; system = human whole blood; conditions = 0.3 µM, with: Escherichia coli; endpoint = amount; value = 169 ± 71 pg/mL blood
SMILES = CCN(CC)CC(=O)Nc1cccc(-n2cc(-c3ccc4ccc(-c5cn(-c6cccc(NC(=O)CN(CC)CC)c6)nn5)cc4c3)nn2)c1; target or system = RCC4; test = PCR angiogenesis array, item: ANGPT2; conditions = 5 x IC50, 6 h, normoxia; scale = baseline: untreated; endpoint = fold regulation; value = -1.33
SMILES = COC1OC(C)C(OS(=O)(=O)O)C(OC2OC(C)C(OS(=O)(=O)O)C(OC3OC(C)C(OS(=O)(=O)O)C(OC4OC(C)C(OS(=O)(=O)O)C(OC5OC(C)C(OS(=O)(=O)O)C(OC6OC(C)C(OS(=O)(=O)O)C(OC7OC(C)C(OS(=O)(=O)O)C(OS(=O)(=O)O)C7OS(=O)(=O)O)C6OS(=O)(=O)O)C5OS(=O)(=O)O)C4OS(=O)(=O)O)C3OS(=O)(=O)O)C2OS(=O)(=O)O)C1OS(=O)(=O)O (stereo not shown); system = human plasma; conditions = 128 µg/mL; endpoint = thrombin time; value = 10.5 ± 0.7 s
SMILES = COc1ccc(C(=O)CCc2cc(C(CCc3ccc(O)cc3OC)c3ccc(O)cc3)c(O)cc2OC)cc1 (racemic); system = human blood; conditions = 30 µM, with: A23187; endpoint = PGE2 level; value = 38 ± 8 pg/mL
SMILES = COC1OC(C)C(OC2OC(C)C(OS(=O)(=O)O)C(OC3OC(C)C(OC4OC(C)C(OS(=O)(=O)O)C(OS(=O)(=O)O)C4OS(=O)(=O)O)C(OS(=O)(=O)O)C3OS(=O)(=O)O)C2OS(=O)(=O)O)C(OS(=O)(=O)O)C1OS(=O)(=O)O (stereo not shown); system = human plasma; conditions = 128 µg/mL; endpoint = thrombin time; value = 10.7 ± 0.5 s
SMILES = COC1CN([C@H]2CC[C@H]([C@@]3(C)Oc4c(Cl)cc(C(=O)NCc5c(SC)cc(C)[nH]c5=O)c(C)c4O3)CC2)C1; test = RNA-seq, item: SRCIN1; system = human, whole blood; conditions = dose not given, 24 h; scale = baseline: pretreatment baseline; endpoint = log2 fold change; value = 3.44
SMILES = C=C(NC(=O)c1csc(-c2nc3c(cc2O)-c2nc(cs2)C(=O)NC(C(C)O)C(=O)NC(=C(C)OC)c2nc(cs2)C(=O)NC2c4nc(cs4)C(=O)NC(COC(=O)c4c5c6c(cccc6n4O)COC(=O)C(OC4CC(C)(O)C(N(C)C)C(C)O4)C2OC5)c2nc-3cs2)n1)C(N)=O (stereo not shown); target or system = Streptococcus pyogenes; system = 40 clinical isolates; endpoint = MIC50; value = 0.0078 mg/L (≈ 0.00543 µM)
